Measured values collected from several papers.
Each line is one published result; not all experiments were run side by side.
ABL1 phosphorylated: Tyrosine-protein kinase ABL1, phosphorylated (ABL1, Homo sapiens, UniProt P00519)
Chain of UniProt P49674 (whole entry, looked up): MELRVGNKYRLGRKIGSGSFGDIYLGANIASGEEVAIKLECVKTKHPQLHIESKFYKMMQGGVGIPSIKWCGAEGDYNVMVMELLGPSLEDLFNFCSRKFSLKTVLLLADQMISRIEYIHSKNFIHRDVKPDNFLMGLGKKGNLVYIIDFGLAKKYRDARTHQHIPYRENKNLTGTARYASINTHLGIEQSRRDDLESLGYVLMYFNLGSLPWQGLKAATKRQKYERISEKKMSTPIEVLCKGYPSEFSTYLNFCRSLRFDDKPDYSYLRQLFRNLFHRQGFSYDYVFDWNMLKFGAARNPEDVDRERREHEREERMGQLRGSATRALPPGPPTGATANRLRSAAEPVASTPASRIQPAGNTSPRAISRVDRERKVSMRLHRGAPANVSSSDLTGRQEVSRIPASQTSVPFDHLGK
Chain of UniProt P10721 (whole entry, unmodified, looked up): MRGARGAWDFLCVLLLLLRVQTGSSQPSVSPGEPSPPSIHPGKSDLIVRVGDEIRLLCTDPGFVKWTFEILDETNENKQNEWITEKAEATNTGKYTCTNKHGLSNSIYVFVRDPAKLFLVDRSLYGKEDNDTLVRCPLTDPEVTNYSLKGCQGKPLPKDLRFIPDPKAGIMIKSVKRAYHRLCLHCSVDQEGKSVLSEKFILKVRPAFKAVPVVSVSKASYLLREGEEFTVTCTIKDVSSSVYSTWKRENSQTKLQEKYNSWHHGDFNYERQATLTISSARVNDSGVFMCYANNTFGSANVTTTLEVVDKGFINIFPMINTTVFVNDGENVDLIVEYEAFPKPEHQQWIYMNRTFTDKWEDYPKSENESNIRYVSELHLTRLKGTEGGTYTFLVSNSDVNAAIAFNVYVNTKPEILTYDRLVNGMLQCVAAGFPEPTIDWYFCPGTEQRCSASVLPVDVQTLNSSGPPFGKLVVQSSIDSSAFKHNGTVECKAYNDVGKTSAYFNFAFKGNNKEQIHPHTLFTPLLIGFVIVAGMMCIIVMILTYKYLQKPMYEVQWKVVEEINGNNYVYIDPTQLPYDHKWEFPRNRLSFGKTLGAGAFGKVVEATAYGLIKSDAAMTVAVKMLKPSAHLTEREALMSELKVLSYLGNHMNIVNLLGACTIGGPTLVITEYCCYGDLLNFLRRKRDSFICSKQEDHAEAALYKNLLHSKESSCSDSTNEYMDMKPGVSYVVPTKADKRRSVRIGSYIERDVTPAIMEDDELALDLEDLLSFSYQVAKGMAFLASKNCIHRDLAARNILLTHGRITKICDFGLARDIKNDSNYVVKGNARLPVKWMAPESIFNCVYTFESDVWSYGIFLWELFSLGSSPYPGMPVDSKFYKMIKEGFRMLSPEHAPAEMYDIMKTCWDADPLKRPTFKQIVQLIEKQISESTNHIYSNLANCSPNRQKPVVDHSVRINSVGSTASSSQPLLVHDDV
Chain of UniProt Q9NSI6 (whole entry, looked up): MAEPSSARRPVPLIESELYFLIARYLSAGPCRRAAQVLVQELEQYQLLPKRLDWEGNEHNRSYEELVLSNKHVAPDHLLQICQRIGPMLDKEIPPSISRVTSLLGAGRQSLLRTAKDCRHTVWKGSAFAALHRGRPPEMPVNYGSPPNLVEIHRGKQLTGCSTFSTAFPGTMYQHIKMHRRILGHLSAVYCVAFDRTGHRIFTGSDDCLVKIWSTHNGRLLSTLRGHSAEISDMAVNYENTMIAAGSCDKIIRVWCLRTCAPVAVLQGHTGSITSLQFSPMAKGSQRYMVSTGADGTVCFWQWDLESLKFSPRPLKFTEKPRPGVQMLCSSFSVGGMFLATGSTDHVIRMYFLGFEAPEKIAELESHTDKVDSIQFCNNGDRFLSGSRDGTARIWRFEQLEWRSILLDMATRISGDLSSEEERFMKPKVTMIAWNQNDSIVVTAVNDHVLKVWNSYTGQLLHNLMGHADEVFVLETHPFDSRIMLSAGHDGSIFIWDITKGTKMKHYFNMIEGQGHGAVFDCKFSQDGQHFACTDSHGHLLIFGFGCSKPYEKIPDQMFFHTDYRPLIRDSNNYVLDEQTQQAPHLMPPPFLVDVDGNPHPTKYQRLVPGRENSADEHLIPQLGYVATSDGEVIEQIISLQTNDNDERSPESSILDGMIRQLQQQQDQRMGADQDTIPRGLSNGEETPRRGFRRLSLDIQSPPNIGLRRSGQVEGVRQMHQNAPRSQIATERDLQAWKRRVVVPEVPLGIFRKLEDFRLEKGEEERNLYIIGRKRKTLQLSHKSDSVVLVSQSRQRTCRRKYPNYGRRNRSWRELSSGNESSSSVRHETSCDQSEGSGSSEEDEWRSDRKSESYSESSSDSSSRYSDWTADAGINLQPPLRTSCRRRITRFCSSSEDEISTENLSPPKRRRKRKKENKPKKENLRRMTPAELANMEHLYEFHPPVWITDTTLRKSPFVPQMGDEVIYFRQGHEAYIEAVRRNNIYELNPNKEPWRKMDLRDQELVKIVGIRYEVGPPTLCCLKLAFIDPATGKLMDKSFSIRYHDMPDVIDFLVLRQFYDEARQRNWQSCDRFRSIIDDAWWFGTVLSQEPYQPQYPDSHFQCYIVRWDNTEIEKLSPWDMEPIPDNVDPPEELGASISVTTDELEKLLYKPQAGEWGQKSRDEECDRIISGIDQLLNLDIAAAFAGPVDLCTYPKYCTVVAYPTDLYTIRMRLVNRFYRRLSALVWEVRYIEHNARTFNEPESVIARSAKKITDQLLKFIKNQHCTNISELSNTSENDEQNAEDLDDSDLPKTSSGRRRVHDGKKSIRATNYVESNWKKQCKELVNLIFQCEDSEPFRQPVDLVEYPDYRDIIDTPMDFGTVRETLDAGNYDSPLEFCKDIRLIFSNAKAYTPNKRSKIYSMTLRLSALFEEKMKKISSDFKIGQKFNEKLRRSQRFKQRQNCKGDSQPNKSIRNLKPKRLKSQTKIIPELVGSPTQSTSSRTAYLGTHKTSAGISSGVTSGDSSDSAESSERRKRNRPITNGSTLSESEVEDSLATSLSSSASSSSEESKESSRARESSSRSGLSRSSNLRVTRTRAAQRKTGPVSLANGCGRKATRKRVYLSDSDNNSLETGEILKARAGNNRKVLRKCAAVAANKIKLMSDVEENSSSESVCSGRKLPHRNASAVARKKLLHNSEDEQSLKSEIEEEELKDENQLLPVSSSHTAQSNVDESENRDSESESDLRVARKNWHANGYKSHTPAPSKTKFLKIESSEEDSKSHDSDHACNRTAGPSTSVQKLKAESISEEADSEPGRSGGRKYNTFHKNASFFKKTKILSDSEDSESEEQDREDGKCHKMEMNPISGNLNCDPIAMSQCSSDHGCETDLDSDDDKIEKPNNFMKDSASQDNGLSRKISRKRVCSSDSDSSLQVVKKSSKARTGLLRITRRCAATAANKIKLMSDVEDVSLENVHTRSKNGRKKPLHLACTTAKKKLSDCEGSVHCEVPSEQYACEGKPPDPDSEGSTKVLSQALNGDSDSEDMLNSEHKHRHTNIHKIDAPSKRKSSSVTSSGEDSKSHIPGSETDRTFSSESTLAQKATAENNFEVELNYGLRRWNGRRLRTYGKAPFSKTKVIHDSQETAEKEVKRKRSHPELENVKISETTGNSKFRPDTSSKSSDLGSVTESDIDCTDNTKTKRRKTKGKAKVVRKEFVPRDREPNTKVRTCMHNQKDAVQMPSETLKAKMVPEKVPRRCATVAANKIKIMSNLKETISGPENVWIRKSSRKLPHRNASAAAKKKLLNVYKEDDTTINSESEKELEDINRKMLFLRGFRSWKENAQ

Cc1cc(NC(=O)[C@H](O)c2cc(F)cc(F)c2)ccc1-c1cnc(N)c(C(=O)NC(C)C)c1 gave a remaining binding of 86% (Casein kinase I isoform epsilon (CSNK1E, Homo sapiens, UniProt P49674); binding, competition with immobilised ligand; 0.1 µM).
Cn1cc(-c2cc(N3CCCCS3(=O)=O)ccc2N[C@H]2CC[C@H](C)CC2)c2cc[nH]c2c1=O (stereo in doubt) has a remaining binding of 92% (Bromodomain and WD repeat-containing protein 1, BD2 (BRWD1, Homo sapiens, UniProt Q9NSI6); binding, competition with immobilised ligand; 1 µM).
CC(=O)N1c2ccc(-c3ccc(CNC(=O)c4cn5cc(-c6cnc(N)nc6)nc(N6CCOCC6)c5n4)cc3)cc2CC[C@@H]1C gave a remaining binding of 41% (CREB-binding protein (CREBBP, Homo sapiens, UniProt Q92793); binding, competition with immobilised ligand; 10 µM).
C=CC(=O)N1CCCC(n2c(=O)c3ncccc3n(Cc3ccc(Oc4ccccc4)cc3)c2=O)C1 (stereo not shown) gave a remaining binding of 86% (Tyrosine-protein kinase ABL1, non-phosphorylated (ABL1, Homo sapiens, UniProt P00519); cell-free assay, competition with immobilised ligand; 1 µM).
For CCN1CCN(Cc2ccc(C(=O)Nc3ccc(C)c(NCc4cnc5[nH]ccc5c4OC)c3)cc2C(F)(F)F)CC1, the remaining binding was 0.45% (ABL1 phosphorylated; binding, competition with immobilised ligand; 1 µM).
CC(C)=CC1OC(C)(C)C2C=C3C(=O)C(Cl)=CC(O)C3C3C(O)C4OC4C(=O)C132 (stereo not shown) has a remaining binding of 98% (Tyrosine-protein kinase ABL1, non-phosphorylated (ABL1, Homo sapiens, UniProt P00519, F317I); cell-free assay, competition with immobilised ligand; 10 µM).
COc1cc(Nc2nccc(-c3cnn4nc(OC)ccc34)n2)cc(C(F)(F)F)c1 gave a remaining binding of 77% (Mast/stem cell growth factor receptor Kit (KIT, Homo sapiens, UniProt P10721, A829P); binding; 1 µM).
With Nc1ncc2c(n1)-c1c([nH]c3ccc(C4=CCOCC4)cc13)CCC2 the remaining binding was 97% (Tyrosine-protein kinase ABL1, phosphorylated (ABL1, Homo sapiens, UniProt P00519, Y253F); binding, competition with immobilised ligand; 1 µM).
For Cc1cnc2nc1Nc1cccc(c1)COC/C=C/COCc1cc(ccc1OCCN1CCOCC1)N2, the remaining binding was 100% (Epidermal growth factor receptor (EGFR, Homo sapiens, UniProt P00533, T790M); binding; 0.1 µM).
The remaining binding of CNC(=O)C1CCN(c2cc(C)c(F)cc2NC(=O)c2ccc(-c3cc(O)ccc3C)c(C)c2)CC1 is reported as 25% (ABL1 phosphorylated; binding, competition with immobilised ligand; 1 µM).

Excerpt of the above:
C=CC(=O)N1CCCC(n2c(=O)c3ncccc3n(Cc3ccc(Oc4ccccc4)cc3)c2=O)C1 (stereo not shown) gave a remaining binding of 86% (Tyrosine-protein kinase ABL1, non-phosphorylated (ABL1, Homo sapiens, UniProt P00519); cell-free assay, competition with immobilised ligand; 1 µM).
For CCN1CCN(Cc2ccc(C(=O)Nc3ccc(C)c(NCc4cnc5[nH]ccc5c4OC)c3)cc2C(F)(F)F)CC1, the remaining binding was 0.45% (ABL1 phosphorylated; binding, competition with immobilised ligand; 1 µM).
